{"data": "Measurements collected from several papers", "note": "A part holds a random share of what one study measured.", "sequence of UniProt Q9H422 (whole entry, looked up)": "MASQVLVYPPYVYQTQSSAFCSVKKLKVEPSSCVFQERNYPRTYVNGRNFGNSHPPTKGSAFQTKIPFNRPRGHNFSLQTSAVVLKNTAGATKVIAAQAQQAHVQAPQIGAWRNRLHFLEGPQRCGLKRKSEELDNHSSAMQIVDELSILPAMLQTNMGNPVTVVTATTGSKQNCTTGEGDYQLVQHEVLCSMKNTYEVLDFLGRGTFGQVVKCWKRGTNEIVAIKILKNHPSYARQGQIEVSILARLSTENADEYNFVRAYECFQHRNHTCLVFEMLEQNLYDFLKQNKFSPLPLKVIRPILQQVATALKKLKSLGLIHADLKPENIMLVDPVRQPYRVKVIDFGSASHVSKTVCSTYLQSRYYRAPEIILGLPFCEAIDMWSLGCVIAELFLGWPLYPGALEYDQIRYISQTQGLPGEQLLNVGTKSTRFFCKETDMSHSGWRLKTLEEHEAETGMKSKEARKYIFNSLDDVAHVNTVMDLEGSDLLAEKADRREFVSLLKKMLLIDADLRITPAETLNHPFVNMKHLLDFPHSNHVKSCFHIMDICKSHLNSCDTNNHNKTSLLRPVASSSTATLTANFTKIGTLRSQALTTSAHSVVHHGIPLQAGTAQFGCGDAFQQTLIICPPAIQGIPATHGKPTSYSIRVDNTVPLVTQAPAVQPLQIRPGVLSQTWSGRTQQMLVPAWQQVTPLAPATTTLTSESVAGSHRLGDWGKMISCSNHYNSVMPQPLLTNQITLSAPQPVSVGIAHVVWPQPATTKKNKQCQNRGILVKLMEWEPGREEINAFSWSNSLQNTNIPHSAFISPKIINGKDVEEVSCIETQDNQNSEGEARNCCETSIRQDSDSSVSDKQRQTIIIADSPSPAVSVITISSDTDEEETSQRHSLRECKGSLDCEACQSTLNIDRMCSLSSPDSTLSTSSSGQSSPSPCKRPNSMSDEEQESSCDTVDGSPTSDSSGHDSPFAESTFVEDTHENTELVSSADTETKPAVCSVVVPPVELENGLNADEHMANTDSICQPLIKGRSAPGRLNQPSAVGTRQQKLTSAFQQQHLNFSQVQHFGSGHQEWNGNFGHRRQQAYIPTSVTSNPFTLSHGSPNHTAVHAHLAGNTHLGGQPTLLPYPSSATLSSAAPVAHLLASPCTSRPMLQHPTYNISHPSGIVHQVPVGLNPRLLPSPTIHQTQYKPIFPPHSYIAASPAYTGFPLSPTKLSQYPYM", "sequence of UniProt Q96GD4 (whole entry, looked up)": "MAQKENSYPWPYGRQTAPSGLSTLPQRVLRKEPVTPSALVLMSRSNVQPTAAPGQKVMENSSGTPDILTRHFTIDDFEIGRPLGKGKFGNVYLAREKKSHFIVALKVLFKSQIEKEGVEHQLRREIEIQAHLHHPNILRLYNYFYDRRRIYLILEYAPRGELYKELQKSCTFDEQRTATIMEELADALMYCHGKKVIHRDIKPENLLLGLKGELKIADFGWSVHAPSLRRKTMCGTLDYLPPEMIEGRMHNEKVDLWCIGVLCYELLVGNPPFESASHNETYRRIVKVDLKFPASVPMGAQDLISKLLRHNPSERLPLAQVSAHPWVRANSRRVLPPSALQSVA", "sequence of UniProt P07333 (whole entry, looked up)": "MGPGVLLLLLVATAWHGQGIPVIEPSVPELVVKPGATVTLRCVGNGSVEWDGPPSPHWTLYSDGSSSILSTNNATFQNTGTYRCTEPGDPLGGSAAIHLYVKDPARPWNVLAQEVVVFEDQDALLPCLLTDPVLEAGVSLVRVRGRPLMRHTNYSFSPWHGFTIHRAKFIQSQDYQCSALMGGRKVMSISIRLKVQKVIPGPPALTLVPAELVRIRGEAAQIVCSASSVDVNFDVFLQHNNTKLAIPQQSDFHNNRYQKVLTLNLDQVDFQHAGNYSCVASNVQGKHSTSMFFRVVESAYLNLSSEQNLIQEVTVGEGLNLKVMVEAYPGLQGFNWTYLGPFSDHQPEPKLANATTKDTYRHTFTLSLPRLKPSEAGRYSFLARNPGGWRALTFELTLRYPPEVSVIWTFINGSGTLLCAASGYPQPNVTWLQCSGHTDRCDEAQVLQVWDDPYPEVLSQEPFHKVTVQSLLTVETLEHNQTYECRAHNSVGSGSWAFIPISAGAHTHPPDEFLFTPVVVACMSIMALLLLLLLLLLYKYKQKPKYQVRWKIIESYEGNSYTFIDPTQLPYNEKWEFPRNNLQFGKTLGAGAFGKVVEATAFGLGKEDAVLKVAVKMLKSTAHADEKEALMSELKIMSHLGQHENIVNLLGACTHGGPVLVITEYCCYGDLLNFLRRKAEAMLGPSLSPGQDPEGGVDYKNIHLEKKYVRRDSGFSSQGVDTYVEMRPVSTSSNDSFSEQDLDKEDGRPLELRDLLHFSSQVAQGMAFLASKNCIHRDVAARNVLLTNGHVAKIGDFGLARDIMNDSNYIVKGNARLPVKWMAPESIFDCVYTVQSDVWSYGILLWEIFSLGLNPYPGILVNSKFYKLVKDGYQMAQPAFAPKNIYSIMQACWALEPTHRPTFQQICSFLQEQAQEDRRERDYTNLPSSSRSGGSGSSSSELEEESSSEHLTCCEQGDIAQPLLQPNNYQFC", "sequence of UniProt P48729 (whole entry, looked up)": "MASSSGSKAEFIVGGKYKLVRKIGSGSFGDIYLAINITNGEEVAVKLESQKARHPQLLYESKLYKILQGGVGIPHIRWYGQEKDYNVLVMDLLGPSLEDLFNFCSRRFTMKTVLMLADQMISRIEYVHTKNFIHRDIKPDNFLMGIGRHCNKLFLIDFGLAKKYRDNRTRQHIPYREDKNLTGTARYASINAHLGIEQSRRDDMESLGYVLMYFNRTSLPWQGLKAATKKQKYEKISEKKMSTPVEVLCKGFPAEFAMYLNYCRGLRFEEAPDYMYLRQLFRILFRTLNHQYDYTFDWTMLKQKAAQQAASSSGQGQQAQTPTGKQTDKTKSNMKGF", "sequence of UniProt Q9H2X6 (whole entry, looked up)": "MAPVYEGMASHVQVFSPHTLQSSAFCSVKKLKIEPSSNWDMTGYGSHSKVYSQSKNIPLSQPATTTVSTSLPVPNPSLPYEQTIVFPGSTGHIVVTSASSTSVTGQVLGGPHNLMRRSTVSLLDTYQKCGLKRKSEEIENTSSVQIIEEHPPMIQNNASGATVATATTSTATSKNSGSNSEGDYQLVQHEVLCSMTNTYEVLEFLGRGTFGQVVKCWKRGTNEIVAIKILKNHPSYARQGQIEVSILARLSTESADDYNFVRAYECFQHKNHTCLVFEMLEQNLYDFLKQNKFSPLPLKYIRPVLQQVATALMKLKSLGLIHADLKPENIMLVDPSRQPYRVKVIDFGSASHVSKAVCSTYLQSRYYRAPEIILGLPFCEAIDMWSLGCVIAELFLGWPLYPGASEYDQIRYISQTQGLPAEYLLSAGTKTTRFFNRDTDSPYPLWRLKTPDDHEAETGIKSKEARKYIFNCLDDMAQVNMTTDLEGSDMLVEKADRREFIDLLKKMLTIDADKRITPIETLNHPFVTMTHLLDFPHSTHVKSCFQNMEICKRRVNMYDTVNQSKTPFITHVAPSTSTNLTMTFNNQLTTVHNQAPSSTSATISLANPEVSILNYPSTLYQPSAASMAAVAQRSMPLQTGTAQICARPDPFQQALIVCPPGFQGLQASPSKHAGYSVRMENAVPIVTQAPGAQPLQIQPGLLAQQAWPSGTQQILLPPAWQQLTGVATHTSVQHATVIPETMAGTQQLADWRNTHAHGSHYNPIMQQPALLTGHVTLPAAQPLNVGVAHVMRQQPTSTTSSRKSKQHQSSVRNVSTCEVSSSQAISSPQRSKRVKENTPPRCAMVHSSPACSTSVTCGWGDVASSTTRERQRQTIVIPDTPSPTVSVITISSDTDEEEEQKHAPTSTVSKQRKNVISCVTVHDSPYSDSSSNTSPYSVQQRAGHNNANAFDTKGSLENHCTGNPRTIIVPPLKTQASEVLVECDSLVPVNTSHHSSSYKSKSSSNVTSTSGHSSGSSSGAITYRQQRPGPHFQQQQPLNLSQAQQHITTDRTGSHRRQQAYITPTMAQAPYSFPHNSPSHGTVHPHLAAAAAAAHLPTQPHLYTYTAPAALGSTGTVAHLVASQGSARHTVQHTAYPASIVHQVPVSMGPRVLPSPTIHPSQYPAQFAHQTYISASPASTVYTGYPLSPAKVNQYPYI", "sequence of UniProt Q15569 (whole entry, looked up)": "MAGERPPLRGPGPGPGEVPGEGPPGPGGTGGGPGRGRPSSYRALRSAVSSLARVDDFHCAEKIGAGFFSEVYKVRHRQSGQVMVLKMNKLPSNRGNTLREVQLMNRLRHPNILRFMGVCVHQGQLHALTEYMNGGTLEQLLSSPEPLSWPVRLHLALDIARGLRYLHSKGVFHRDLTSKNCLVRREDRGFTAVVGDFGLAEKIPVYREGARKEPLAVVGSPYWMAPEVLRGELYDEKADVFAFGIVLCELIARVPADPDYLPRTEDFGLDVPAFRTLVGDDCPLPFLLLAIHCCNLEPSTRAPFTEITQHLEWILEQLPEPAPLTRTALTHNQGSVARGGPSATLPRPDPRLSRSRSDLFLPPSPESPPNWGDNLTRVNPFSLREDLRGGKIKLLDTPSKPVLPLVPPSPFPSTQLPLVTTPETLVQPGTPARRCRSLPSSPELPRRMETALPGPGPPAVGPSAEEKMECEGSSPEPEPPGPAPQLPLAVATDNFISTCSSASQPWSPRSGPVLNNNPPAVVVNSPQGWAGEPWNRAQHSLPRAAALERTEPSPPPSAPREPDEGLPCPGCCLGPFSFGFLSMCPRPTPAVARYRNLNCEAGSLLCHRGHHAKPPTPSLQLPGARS", "sequence of UniProt Q96PN8 (whole entry, looked up)": "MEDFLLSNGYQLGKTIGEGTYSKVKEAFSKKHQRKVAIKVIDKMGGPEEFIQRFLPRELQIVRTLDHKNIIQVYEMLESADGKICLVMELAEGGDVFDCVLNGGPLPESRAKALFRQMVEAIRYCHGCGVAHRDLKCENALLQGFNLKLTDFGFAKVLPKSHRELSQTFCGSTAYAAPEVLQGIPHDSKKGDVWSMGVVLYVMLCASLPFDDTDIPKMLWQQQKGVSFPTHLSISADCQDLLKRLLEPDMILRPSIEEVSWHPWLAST"}
{"data": "Series 1", "SMILES": "CNCc1ccccc1-c1csc([C@@H](C)Nc2nc(C)nc3cc(OC)c(OC)cc23)c1", "effect on": "cell-free assay", "technique": "competition with immobilised ligand", "tested at": "1 µM"}
{"target": "Macrophage colony-stimulating factor 1 receptor (CSF1R, Homo sapiens, UniProt P07333)", "remaining binding": "91%"}
{"target": "Homeodomain-interacting protein kinase 2 (HIPK2, Homo sapiens, UniProt Q9H2X6)", "remaining binding": "86%"}
{"target": "Serine/threonine-protein kinase DCLK2 (DCLK2, Homo sapiens, UniProt Q8N568)", "remaining binding": "99%"}
{"target": "Serine/threonine-protein kinase LATS1 (LATS1, Homo sapiens, UniProt O95835)", "remaining binding": "100%"}
{"target": "Protein kinase C theta type (PRKCQ, Homo sapiens, UniProt Q04759)", "remaining binding": "100%"}
{"target": "Bone morphogenetic protein receptor type-1A (BMPR1A, Homo sapiens, UniProt P36894)", "remaining binding": "91%"}
{"target": "Homeodomain-interacting protein kinase 3 (HIPK3, Homo sapiens, UniProt Q9H422)", "remaining binding": "83%"}
{"target": "Aurora kinase B (AURKB, Homo sapiens, UniProt Q96GD4)", "remaining binding": "77%"}
{"target": "Interleukin-1 receptor-associated kinase 3 (IRAK3, Homo sapiens, UniProt Q9Y616)", "remaining binding": "75%"}
{"data": "Series 2", "target": "Serine/threonine-protein kinase Nek2 (NEK2, Homo sapiens, UniProt P51955)", "effect on": "enzyme activity", "action": "inhibitor", "tested at": "0.5 µM", "reference": "control", "Residues (P51955 1-445)": "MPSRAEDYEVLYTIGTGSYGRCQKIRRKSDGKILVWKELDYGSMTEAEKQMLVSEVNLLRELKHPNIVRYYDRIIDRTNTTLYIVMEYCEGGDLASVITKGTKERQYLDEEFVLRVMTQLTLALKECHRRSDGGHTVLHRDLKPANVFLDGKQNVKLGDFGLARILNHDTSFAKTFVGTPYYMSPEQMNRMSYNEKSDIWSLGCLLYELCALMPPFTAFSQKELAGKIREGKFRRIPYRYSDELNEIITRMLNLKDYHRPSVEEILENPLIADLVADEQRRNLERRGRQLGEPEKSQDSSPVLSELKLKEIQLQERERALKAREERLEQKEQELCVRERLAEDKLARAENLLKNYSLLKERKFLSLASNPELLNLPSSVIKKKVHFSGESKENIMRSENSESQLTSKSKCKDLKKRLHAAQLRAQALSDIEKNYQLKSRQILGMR"}
{"Compound": "CO[C@H]1C[C@@H]2CC[C@@H](C)[C@@](O)(O2)C(=O)C(=O)N2CCCC[C@H]2C(=O)O[C@H]([C@H](C)C[C@@H]2CC[C@@H](O)[C@H](OC)C2)CC(=O)[C@H](C)/C=C(\\C)[C@@H](O)[C@@H](OC)C(=O)[C@H](C)C[C@H](C)/C=C/C=C/C=C/1C", "remaining activity": "107%"}
{"Compound": "Cc1cccc(-c2[nH]c(C(C)(C)C)nc2-c2ccc3c(c2)OCO3)n1", "remaining activity": "107%"}
{"Compound": "O=C1NC(=O)C(c2cn(CCCO)c3ncccc23)=C1c1cnccn1", "remaining activity": "97.5%"}
{"Compound": "O=C(O)c1ccc2c3c1cccc3c(=O)n1c3ccccc3nc21", "remaining activity": "109%"}
{"Compound": "CCOC(=O)c1c(C)[nH]c(/C=C2\\C(=O)Nc3ccccc32)c1C", "remaining activity": "91.4%"}
{"Compound": "Cn1sc(=O)n(Cc2ccccc2)c1=O", "remaining activity": "99.7%"}
{"Compound": "NCCNc1ncc(C(N)=O)c(Nc2cccc(C(F)(F)F)c2)n1", "remaining activity": "104%"}
{"Compound": "O=C(CCCc1ccc(-c2ccccc2F)cc1)Nc1ccc(O)cc1", "remaining activity": "90.6%"}
{"Compound": "Oc1ccc(-c2nc(-c3ccncc3)c(-c3ccc(F)cc3)[nH]2)cc1", "remaining activity": "101%"}
{"Compound": "N#CC(C#N)=C(N)/C(C#N)=C/c1ccc(O)cc1", "remaining activity": "102%"}
{"Compound": "O=C(Nc1cccc(Nc2cc(Nc3cccc(C(F)(F)F)c3)ncn2)c1)C1CC1", "remaining activity": "99.5%"}
{"Compound": "Nc1[nH]nc2nc3ccccc3nc12", "remaining activity": "99.7%"}
{"Compound": "Cc1nc(-c2ccccc2)c(-c2ccncc2)o1", "remaining activity": "116%"}
{"Compound": "COc1cc2nccc(Oc3ccc(NC(=S)NC(=O)c4ccccc4C)cc3)c2cc1OC", "remaining activity": "89%"}
{"data": "Series 3", "Structure (SMILES)": "C=CC(=O)N1CCC([C@@H]2CCNc3c(C(N)=O)c(-c4ccc(Oc5ccccc5)cc4)nn32)CC1", "tested at": "1 µM"}
{"target": "Casein kinase I isoform alpha (CSNK1A1, Homo sapiens, UniProt P48729)", "effect on": "enzyme activity", "action": "inhibitor", "inhibition": "3%"}
{"target": "Bone morphogenetic protein receptor type-2 (BMPR2, Homo sapiens, UniProt Q13873)", "effect on": "cell-free assay", "inhibition": "0%"}
{"target": "Dual specificity testis-specific protein kinase 1 (TESK1, Homo sapiens, UniProt Q15569)", "effect on": "enzyme activity", "action": "inhibitor", "inhibition": "12%"}
{"target": "Tyrosine-protein kinase TXK (TXK, Homo sapiens, UniProt P42681)", "effect on": "enzyme activity", "action": "inhibitor", "inhibition": "97%"}
{"target": "Testis-specific serine/threonine-protein kinase 3 (TSSK3, Homo sapiens, UniProt Q96PN8)", "effect on": "enzyme activity", "action": "inhibitor", "inhibition": "0%"}
{"target": "Ribosomal protein S6 kinase alpha-6, C-terminal kinase domain (RPS6KA6, Homo sapiens, UniProt Q9UK32)", "action": "inhibitor", "inhibition": "18%"}
{"data": "Single results of other studies"}
{"Compound": "CC(C)n1cnc(-c2ccc(F)cc2)c1-c1ncc(C(=O)Nc2ccc(N3CCN(C)CC3)cc2)[nH]1", "host": "human, idiopathic pulmonary fibrosis", "dose": "60 mg once daily", "setting": "trial, treatment-emergent", "measurement": "patients with Nasopharyngitis", "result": "0%"}
{"note": "Some of these lines once more (series 2):"}
{"Compound": "NCCNc1ncc(C(N)=O)c(Nc2cccc(C(F)(F)F)c2)n1", "remaining activity": "104%"}
{"Compound": "O=C(CCCc1ccc(-c2ccccc2F)cc1)Nc1ccc(O)cc1", "remaining activity": "90.6%"}
